Published values pooled from the literature.
Numbered parts are unrelated; each lists some results of a single study. Changes are numbered by the printed parent chain.

Block 1 — method: RNA Bind-n-Seq; molecule type: RNA; matrix: in vitro; concentration: not given; relative to: input RNA pool; reading: higher = stronger binding
Target: RING finger protein unkempt homolog, zinc fingers 1-6, GST-SBP tag (UNK, Homo sapiens, UniProt Q9C0B0, residues 30-357)
UniProt Q9C0B0, sequence (30-357, looked up): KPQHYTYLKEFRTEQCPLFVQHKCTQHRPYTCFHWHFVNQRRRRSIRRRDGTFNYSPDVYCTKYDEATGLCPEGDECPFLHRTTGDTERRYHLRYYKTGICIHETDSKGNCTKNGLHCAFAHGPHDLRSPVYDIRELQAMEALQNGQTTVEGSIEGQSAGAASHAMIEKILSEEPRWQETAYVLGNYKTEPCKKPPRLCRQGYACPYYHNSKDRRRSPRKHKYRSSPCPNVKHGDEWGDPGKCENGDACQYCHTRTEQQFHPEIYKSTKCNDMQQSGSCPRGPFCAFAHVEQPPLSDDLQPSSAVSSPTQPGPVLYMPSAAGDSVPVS
Notes: RNA with constant flanks, human and mouse sites, ends assumed
All sequences stand within: GGGAGUUCUACAGUCCGACGAUC … CAACAGAGGAUUGAGCAUCA
Oligonucleotide | bound/input enrichment [ratio]
GCCGCACUCGGACCCGGGAAGCCGUGCUCUCUCCCCGAUUCUCCGCGGAGGACCCUAGGAAAAUUGUGCAAUGAAUGGUGACACUCGGGCCGCAGUGGUGACCUCACCACCUCCAACCAC | 0.155
GUUUUGAUAACAGAACAUGGAGACUUGGGAAAUGGAAAAUUUUUGGAUCCAAAAAACAGAAUCUGUUUCAAAUUUGAUCAUUUAAGAAAGGAAGCAACUGAUCCAAGGCCCUACGAAGCA | 0.225
GUGUCACUGUUGUCAUCUGAAGAAGAACCAUUAGAGUCAACAGUCUGGGAUGAUUUGGAAGCUAGGUGAUCUGUGUUUUUUUCUUAAAAUAACAUCGUAGCACAGAGGAACUCUACCAGC | 0.2
AUUUAUCUGUAUGAAAUUCCAGUAGUUAAUUUGAACAUUUAUUUAUAUGACGUUUGUAUUUUUAGGUCUUUAAUACAGUGUUUCUACCUCUCAUUUGUAACUGCAUGCAUUAUUCUUGAA | 14.2
UUUCCUAUCAAUGGAUCCAGAUUCAAAUGUAGAAACUGUGAUGACUUUGAUUUUUGUGAAACAUGUUUCAAGACAAAAAAACACAACACCAGGCAUACUUUCGGCAGGAUUAAUGAGCCA | 0.171
UUAAUGUUUUCAAACUGCUUUGAAUACAACCCUCGGAACACAAGUGAAGCAAAAGCUGGAACUCGGCUUCAAGCAUUUUUUCAUAUUCAAGCUCAAAAGCUUGGACUCCACGUCUCACCC | 0.119
AUAAUAUUAACUUUUGCUGAGGUUUAUGAGAUUUUCUCACCCCACAUCGCUCCCCUUUUUUUAAAAAGGACUGUUUUGCUAGUGUGAUAAUGAAUAGGUAAGAUAUGAGAUAAUUGCAAC | 10.8
CUGGAGUCUCCUGUUGUUCAGCCCACACAGUCCUUCAUGGAGGUCUACUCCUGCCCUUACUGUACCAACUCCCCUAUCUUUGGCUCCAUCCUGAAGCUCACUAAACACAUUAAAGAGAAC | 0.462
GAGACUUUUGAUGCAAAUGAUUUGUAUCAGGGGCAGAACUUUAACAAGGUCCUCAGCUCCUUGGUGACACUAAAUAAAGUGACAGCAGACAUUGGACUAGGAAGUGAUUCUGUGUGUGCU | 0.305
GUCAGCUGGGGUACAAAGGCCCAGCCUAUAGACUCCAUAUUAGCAGACUGGAAUGAAGACAUAGAAGCAUUUGAAAUGAUGGAGAAGGAUGAACUAUGACUCUCUGGAAAGACUCUGGUG | 1.45
CACUGCUGUGGUCGCCGGUCGGCCGAGGGGCCGCGAUACUGGUUGCCCGCGGUGUAAGCAGAAUUCGACGUGUAUCGCUGCCGUCAAGAUGGAGGGGCCUUUGUCCGUGUUCGGUGACCG | 0.109

Block 2 — method: DHFR PCA, deep sequencing; matrix: yeast; added: (+)-ABA 0 µM; relative to: wild-type fitted maximum; reading: higher = stronger binding
Target: ABI1, truncated, D143A, DHFR fusion (Arabidopsis thaliana)
Notes: methotrexate growth selection, single substitutions
Starting sequence: PYL1, truncated, DHFR fusion (Arabidopsis thaliana); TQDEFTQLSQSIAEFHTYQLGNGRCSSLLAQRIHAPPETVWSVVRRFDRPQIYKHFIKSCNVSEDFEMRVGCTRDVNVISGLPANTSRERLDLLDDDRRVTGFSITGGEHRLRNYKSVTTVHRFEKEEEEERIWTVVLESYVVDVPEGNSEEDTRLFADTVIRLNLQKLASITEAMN; partner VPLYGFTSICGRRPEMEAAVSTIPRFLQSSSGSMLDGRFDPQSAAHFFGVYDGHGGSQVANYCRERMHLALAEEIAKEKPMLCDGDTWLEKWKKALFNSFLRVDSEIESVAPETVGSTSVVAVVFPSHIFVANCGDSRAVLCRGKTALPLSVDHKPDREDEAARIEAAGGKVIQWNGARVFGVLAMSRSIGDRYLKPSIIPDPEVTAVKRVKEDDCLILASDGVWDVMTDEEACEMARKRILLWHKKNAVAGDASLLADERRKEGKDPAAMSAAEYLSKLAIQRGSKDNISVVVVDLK
Change | relative binding score [%]
R155V | 3.45
M68V | 8.97
R98H | -4.23
G107C | 2.11
K116P | -0.153
N149F | 1.92
R113M | 17.6
Y53R | 9.1
L91N | 1.15
S26I | 1.56
R99M | 78.2
T39D | 7.7
E129W | 5.49
V145N | -10.2
F124D | 10.2
E127D | 34.3
S171M | 24.9
R98E | -7.58

Block 3 — target: CCND3, cyclin fold, Cln2 fusion (human); method: yeast growth competition, sequencing; matrix: yeast; notes: weak parent motif; relative to: not given; reading: higher = stronger binding
Starting sequence: RBL1 docking peptide (human); GSAKRRLFGEDPP
Change | normalised enrichment score
GSAKRRLKGEDPP [F8K] | 0.221
GSAKRRLTGEDPP [F8T] | 0.143
GSAKRRLFGDDPP [E10D] | 0.143
GSAKRRIFGEDPP [L7I] | 0.218
GSAYRRLFGEDPP [K4Y] | 0.121
GSAKRRLFREDPP [G9R] | 0.124
GSAKRRLFGEMPP [D11M] | 0.0878
PSAKRRLFGEDPP [G1P] | 0.0602
GSAERRLFGEDPP [K4E] | 0.0677
GSAKRRVFGEDPP [L7V] | 0.184
ESAKRRLFGEDPP [G1E] | 0.101
GSAKYRLFGEDPP [R5Y] | 0.125
GSAKRRLFGEDSP [P12S] | 0.2
GSAKRRLFGRDPP [E10R] | 0.138
FSAKRRLFGEDPP [G1F] | 0.214
GSAKRCLFGEDPP [R6C] | 0.117
GSRKRRLFGEDPP [A3R] | 0.108
GSAKRRLFGEGPP [D11G] | 0.146
GSAKKRLLGEDPP [R5K F8L] | 0.00796
GSYKRRLFGEDPP [A3Y] | 0.113
GSAKRRLFGSDPP [E10S] | 0.142
GSAWRRLFGEDPP [K4W] | 0.154
GVAKRRLFGEDPP [S2V] | 0.0938
GSAKRWLFGEDPP [R6W] | 0.0607
SSAKRRLFGEDPP [G1S] | 0.212

Block 4 — target: CEP164, C-terminal peptide (human); method: DHFR complementation, deep sequencing; matrix: yeast; relative to: wild type; reading: higher = weaker binding
Notes: single substitutions, model-inferred values
Starting sequence: PDZK1, PDZ domain 2 (human); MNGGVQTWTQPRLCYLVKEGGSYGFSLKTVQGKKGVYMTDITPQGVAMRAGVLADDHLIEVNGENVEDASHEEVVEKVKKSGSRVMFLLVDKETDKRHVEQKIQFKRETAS; partner HNRVKVYRF
Change | binding free energy change [kcal/mol]
M1V | -0.108
R97C | -0.0462
G3S | -0.0531
F25T | 1.42
D91H | 0.0347
K102W | -0.0807
M38K | 1.04
D95I | -0.0967
M38E | 1.98
E73T | 0.0837
P43D | 0.178
M1G | -0.202
L53T | 0.39
C14P | 1.34
R97V | -0.0747

Block 5 — method: aptamer microarray, sandwich; molecule type: DNA with 2'F-ANA; matrix: in vitro; concentration: 200 nM; added: Cy3 exosite-II aptamer, 400 nM; reading: higher = stronger binding; oligonucleotide: GGTTGGTGTGGTTGG
Target: Prothrombin, mature alpha-thrombin (F2, Homo sapiens, UniProt P00734)
Notes: whole 15-mer aptamer, many near background
Modification | mean fluorescence intensity
2'F-ANA at 3 5 6 7 8 9 10 11 13 14 | 51.6 a.u.
2'F-ANA at 1 2 3 4 5 6 7 8 9 11 12 13 | 71.6 a.u.
2'F-ANA at 1 2 5 6 7 9 11 12 | 118 a.u.
2'F-ANA at 6 8 9 11 13 14 | 199 a.u.
2'F-ANA at 3 9 11 12 13 14 15 | 601 a.u.
2'F-ANA at 1 4 5 9 12 14 | 43.3 a.u.
2'F-ANA at 2 3 4 5 9 10 11 14 15 | 47.9 a.u.
2'F-ANA at 2 3 9 10 13 | 324 a.u.
2'F-ANA at 2 7 8 9 10 15 | 139 a.u.
2'F-ANA at 3 5 7 9 12 15 | 224 a.u.
2'F-ANA at 1 2 4 5 6 7 8 9 10 11 13 14 | 48.7 a.u.
2'F-ANA at 3 4 5 8 11 | 91.7 a.u.
2'F-ANA at 2 3 5 7 9 11 12 13 | 137 a.u.
2'F-ANA at 4 6 8 9 10 13 14 | 68.3 a.u.
2'F-ANA at 1 2 6 7 15 | 180 a.u.
2'F-ANA at 3 4 5 6 7 11 13 15 | 60.6 a.u.
2'F-ANA at 1 5 6 7 9 10 11 12 13 14 15 | 71.7 a.u.

Block 6 — target: CREB3L3, bZIP domain (human); method: DHFR protein complementation; matrix: yeast; relative to: wild-type JUN-FOS pair; reading: higher = stronger binding
Notes: single substitutions, most at no-binding floor
Starting sequence: JUN, bZIP domain (human); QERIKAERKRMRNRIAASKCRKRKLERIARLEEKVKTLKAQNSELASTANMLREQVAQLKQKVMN; partner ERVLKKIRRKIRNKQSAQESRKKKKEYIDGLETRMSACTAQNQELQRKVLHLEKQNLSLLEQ
Change | binding fitness
L45P | -1.43 natural log
S43L | -1.47 natural log
V35H | -1.46 natural log
S47I | -1.5 natural log
E44H | -1.46 natural log
L31Q | -1.53 natural log
E44S | -1.51 natural log
E32W | -1.44 natural log
E33P | -1.54 natural log
A46L | -1.41 natural log
V35W | -1.38 natural log
A29Q | -1.6 natural log
S47K | -1.37 natural log
L31G | -1.52 natural log
E54G | -1.27 natural log
L38H | -1.47 natural log
A40Y | -1.49 natural log
K39T | -1.51 natural log
M51W | -1.37 natural log
K36R | -1.33 natural log
L31N | -1.15 natural log
A49M | -1.33 natural log
A46G | -1.49 natural log
E54Y | -1.55 natural log
S43E | -1.42 natural log

Excerpt of the above (block 3):
Change | normalised enrichment score
GSAWRRLFGEDPP [K4W] | 0.154
FSAKRRLFGEDPP [G1F] | 0.214
GSAKRRVFGEDPP [L7V] | 0.184
GSRKRRLFGEDPP [A3R] | 0.108
GSAKRRLFGEDSP [P12S] | 0.2
GVAKRRLFGEDPP [S2V] | 0.0938
GSAKRWLFGEDPP [R6W] | 0.0607
GSAKRRLFGSDPP [E10S] | 0.142
SSAKRRLFGEDPP [G1S] | 0.212
GSAKRCLFGEDPP [R6C] | 0.117
GSAKRRLTGEDPP [F8T] | 0.143
PSAKRRLFGEDPP [G1P] | 0.0602
GSAYRRLFGEDPP [K4Y] | 0.121
GSAERRLFGEDPP [K4E] | 0.0677
GSAKYRLFGEDPP [R5Y] | 0.125
